Results of several laboratories.
Parts stem from different laboratories: compare values within a part only.

Sample 1
Target: Sal-like protein 4, full length isoform B (SALL4, Homo sapiens, UniProt Q9UJQ4-2, residues 1-616)
Method: universal PBM
Form: double-stranded DNA, one strand shown
Sample: in vitro
Concentration: not given
Notes: 8-mer, flanks averaged, mean of replicates
Reading: higher = stronger binding
| Oligonucleotide | E-score |
| --- | --- |
| AGATAAAT | 0.23 |
| GTGTCGTA | 0.0702 |
| CGCTTACG | -0.207 |
| CGCCCCCG | -0.343 |
| CTCTACCC | -0.132 |
| ACGCGTTC | -0.113 |
| AAAGACTT | 0.133 |
| GCTAGCAC | -0.178 |
| ATGATGCG | 0.0335 |
| CAGGCACC | -0.293 |
| AATTCTGC | 0.0277 |
| AGAAAAGA | 0.151 |
| GCGGATAC | 0.0427 |
| AAATGGTC | 0.121 |
| AGGCCAGC | -0.274 |
| GACCCTAC | -0.192 |
| CTTACAAG | 0.0296 |
| CGCCAGAA | -0.185 |
| ACGAGGAG | -0.0393 |
| TAAGCATA | 0.334 |
| CTCACGTC | -0.105 |
| ACGCGGGC | -0.286 |
| ATGGCTAA | 0.164 |

Sample 2
Target: Centromere-binding protein 1, full length, N-terminal tag (CBF1, Saccharomyces cerevisiae, UniProt P17106, residues 1-351)
Sequence of UniProt P17106 (whole entry, looked up): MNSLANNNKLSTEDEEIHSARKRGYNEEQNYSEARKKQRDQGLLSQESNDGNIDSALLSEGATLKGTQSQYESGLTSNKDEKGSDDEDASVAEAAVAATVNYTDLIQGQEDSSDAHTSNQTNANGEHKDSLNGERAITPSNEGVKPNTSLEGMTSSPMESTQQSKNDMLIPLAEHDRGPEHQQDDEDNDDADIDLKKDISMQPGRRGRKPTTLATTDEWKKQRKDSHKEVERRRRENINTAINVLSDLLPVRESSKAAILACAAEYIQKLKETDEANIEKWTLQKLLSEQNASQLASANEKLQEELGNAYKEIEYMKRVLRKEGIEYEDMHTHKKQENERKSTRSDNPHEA
Method: protein-binding microarray
Form: double-stranded DNA, one strand shown
Sample: in vitro
Concentration: 0.8 µM
Notes: whole 60-bp probe, no competitor
Reading: higher = stronger binding
| Oligonucleotide | fluorescence intensity [a.u.] |
| --- | --- |
| GAATTCACTCCTACAGGTGATTCCTTCGAGAAATAGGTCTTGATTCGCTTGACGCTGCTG | 558 |
| CTAGTTTACACCAATCGCGTGGGGCAAGGGGCTTTCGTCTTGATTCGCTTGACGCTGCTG | 520 |
| CTATAGTTATTGTTGCACCTGAGGCAAAAGCGGTTCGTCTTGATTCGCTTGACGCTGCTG | 573 |
| CTAACGCAGCAACCGGTGATGGCGAAGTTTTACTTCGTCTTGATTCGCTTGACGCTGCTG | 472 |
| TGTACGAAGCTATTGTATGTGCGTATAGTAGTTAGGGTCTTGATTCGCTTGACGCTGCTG | 516 |
| GAAATTGTATTTTATGGCGTGGGTGAAAATTCATAGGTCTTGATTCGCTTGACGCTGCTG | 555 |
| GAACACGGATTTCAGCACGGGTTTCAGCACGGATAGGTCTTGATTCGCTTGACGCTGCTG | 745 |
| GAAACTTCTGGTAAACACCTGATGCGATTCTAATAGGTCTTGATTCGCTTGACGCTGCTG | 977 |
| GAAGATGATGACGACCACGACAACTGGTGTCATTAGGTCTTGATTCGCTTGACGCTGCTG | 524 |
| GAAAAAGAAAAAAATTACGTGACGCGACGCGTTTAGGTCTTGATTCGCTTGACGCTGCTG | 577 |
| CTATTGGTAAGTGATCACGTGGTCAGACAGTTTTTCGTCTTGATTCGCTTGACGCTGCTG | 28700 |
| CTAAGGTGTTGTATGAACGTGAAAGAAATCGAGTTCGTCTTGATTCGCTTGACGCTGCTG | 774 |
| CCTAACTACTATACACATGTTTGATAGCTTCGTACAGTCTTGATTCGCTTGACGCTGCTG | 595 |
| GAATGCGGATGCTATGTCACGTTGAATTAGACCTAGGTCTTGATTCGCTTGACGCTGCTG | 1150 |
| CTAAACCGTGAAGGTCACGGCATATATACTCTGTTCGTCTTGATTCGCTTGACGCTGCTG | 696 |
| GAACCAAAAGCTAATCACGAAATTGAGTGGATGTAGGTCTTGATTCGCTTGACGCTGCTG | 576 |
| CTATTTTGTATAAATCACGGAAGGGATGATTTATTCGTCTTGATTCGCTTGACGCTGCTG | 597 |
| GAAATTACGACACCATGTCTGATGCATTTTAGATAGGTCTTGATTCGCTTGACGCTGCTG | 530 |
| CTATAAATTTTAATTCTCATGATAGTAACGATCTTCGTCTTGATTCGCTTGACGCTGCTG | 560 |
| GAATCAAGGCATGGCCGCGTGATGGCATTGCACTAGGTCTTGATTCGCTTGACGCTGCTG | 683 |
| TGTACGAAGCTATAGCTCGTGTTTATAGTAGTTAGGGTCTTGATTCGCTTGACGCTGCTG | 533 |
| CTAGATTCACGTGATATTCACGTGCATAAACCATTCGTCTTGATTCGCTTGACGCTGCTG | 19500 |
| GAACTAACAACTGAGCACGTAACCAATGGAAAATAGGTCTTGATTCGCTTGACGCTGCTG | 586 |
| CTATCAGCAACAGTACGCACCACCTTCACAGCATTCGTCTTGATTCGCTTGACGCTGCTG | 567 |
| CTAAGTTCAATACGTGATCAAATATACAGCACGTTCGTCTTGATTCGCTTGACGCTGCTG | 1440 |

Sample 3
Target: RING finger protein unkempt homolog, zinc fingers 1-6, GST-SBP tag (UNK, Homo sapiens, UniProt Q9C0B0, residues 30-357)
Method: RNA Bind-n-Seq
Form: RNA
Sample: in vitro
Concentration: not given
Notes: RNA with constant flanks, ends assumed
Reference: input RNA pool
Reading: higher = stronger binding
Target sequence (chain): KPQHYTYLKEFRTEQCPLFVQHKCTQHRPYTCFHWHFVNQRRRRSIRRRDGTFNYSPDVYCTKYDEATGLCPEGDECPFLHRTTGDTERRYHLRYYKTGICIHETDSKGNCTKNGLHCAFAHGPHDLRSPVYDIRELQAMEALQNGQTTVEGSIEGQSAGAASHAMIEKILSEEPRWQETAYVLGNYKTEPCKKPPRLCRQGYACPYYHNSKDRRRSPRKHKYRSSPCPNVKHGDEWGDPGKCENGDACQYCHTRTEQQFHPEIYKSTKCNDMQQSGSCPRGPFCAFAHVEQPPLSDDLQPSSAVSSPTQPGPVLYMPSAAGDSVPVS
| Oligonucleotide | bound/input enrichment |
| --- | --- |
| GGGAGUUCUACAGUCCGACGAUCGAUCGGACUUGUGAAUUAUCUAGAAGAAAUUGUCUGCUGUCCUUUUCUAAUCCGGUGAAUUCCGAUGCCUCCGAAGACAAGGACAGCCCUUUCGGUAAUGGUCAAUCCAAUUUUUCUGAGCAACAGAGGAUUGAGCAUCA | 0.0748 ratio |
| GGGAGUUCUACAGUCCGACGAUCGAGGAAACAGACUACACUCCCGUUUGGUGCAUGCGCCAGGCAGGCCGUUACUUACCAGAGUUCCGGGAAACCCGGGCUGCCCAGGACUUUUUCAGCACGUGUCGCUCUCCUGAGGCCUGCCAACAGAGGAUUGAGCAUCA | 0.159 ratio |
| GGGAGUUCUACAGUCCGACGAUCCCGGCCGCACAACUACCUCAGCGCAGCGGUUGCUGCAGCGGCCCCAGGGCUUUAAACUGCCACCGGGCGCCCCCUUGAGGUUGCUUCACCCGCUGACCAUGUUCCAGCGCUUCACCAGCCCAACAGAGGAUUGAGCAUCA | 0.141 ratio |
| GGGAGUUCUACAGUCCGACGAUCUCUGUUUGUUUUUCUGUUGUUGUAGCUUUUUUUGUCCUGUUAUGUUUUAUCUGUUUGUAUUUCCGAAGGGGGAGGGGAAGUUGUAAUUAUUUCAUCUAAGUCUCCCAUUAUAUAUCUGUGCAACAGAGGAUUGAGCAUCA | 3.33 ratio |
| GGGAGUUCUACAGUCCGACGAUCCAGCAAAAAAUAAACAAAUUUGCUCGGAAUACGAGUCGAAUCACAGAGCUAAAGGAGGAAACCGAAGUGAAGAAGAAACAUCUCCAGAACUUAGAGGACGCCUGUGAUGACAUCAUGCUGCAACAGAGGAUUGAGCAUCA | 0.202 ratio |
| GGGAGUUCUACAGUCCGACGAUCAAGAUUGGGCUUAUUCAGUUUUGCUUAUCUGCUCCCAAAACAGACAUGGAUAAUCAAACCGUGGUUUCUGACUAUGCCCAGAUGGACCGAGUGCUGCGAGAAGAGAGAGCCUAUAUUUUACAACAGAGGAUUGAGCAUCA | 0.28 ratio |
| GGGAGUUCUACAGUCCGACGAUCGAUGGAGCCGUCUUCUUUAACAAGGAAAGAACCAGAAACAUUGUUAAGUUUGACUUGAGGACCCGAAUCAAGAGCGGCGAGGCUAUCAUCAACUAUGCCAACUACCACGAUACGUCACCCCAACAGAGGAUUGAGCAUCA | 0.085 ratio |
| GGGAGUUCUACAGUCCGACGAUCUUGAAACAAGUUCUCGGCCAGAUGGUGAUUGAUGAAGAGCUGUUGGGAGAUGGACACAGCUACCGCCCUAGAGCUAUUCAUUCAUGGUUGACAAGAGCCAUGUACAGCCGCCGCUCCAAGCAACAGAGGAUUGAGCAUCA | 0.116 ratio |
| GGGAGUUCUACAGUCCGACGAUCAAGAAUAUUCGAUUUCCACUGAUGACACCACAGGAUCUCAUCAAUUACGUGCAGACAGCCGAUUUCAUGAGAACAGACAAUACCUGCGUGAAUUUGCUUUUGGAAGCUAGCAAUUACCAACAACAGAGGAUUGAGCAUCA | 0.27 ratio |
| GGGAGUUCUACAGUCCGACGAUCAGUUUUUCUGCUUCCAAAAUUUUUAUUUCUGCAUUAGCUAUGGAUGGACAACAACUUUCCGUGGCAUAUCCCUGUGCUUUGUUGUAUGGAGUCUUUGCCCUGAUUUCUGUCUUCUGAACUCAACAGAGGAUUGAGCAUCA | 0.284 ratio |
| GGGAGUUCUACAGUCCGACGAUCCGGGAGUCCCAGUGCCACAUCCUGGAAGAUCUGCUUGGCUGCCAUUAACUCUUCCUGGAAUUCCGAAGUUUUUGUUAUUUUUACUUUUAUACAGAUUGGUUUUAAGCUCUUGCCUUCUACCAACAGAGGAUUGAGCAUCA | 0.409 ratio |

Sample 4
Target: Fragile X messenger ribonucleoprotein 1, C-terminal low-complexity region (Fmr1, Mus musculus, UniProt P35922)
Method: RNA Bind-n-Seq
Form: RNA
Sample: in vitro
Concentration: 200 nM
Notes: whole 134-nt RNA, ends assumed
Together with: 150 mM LiCl
Reference: input library
Reading: higher = stronger binding
All molecules: 7-deaza-guanosine replaces G
| Oligonucleotide | log2 enrichment |
| --- | --- |
| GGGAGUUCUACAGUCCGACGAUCUGUGCUACACAUCGUAUGUACCGAAUCGGGGUUUUUGGGGUUUUUUUGGGGUUUUUUUGGGGAAAGUAUUAUGUUACGCCGUUCGGAUCUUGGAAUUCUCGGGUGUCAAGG | 1.95 |
| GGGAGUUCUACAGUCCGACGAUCUCCUGUGCUACACAUCGUAUGUACCGAAUCGGGGUGGGGUUUUUUUGGGGUUUUUGGGGAAAGUAUUAUGUUACGCCGUUCGGAUCUGCAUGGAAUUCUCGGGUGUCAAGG | -0.403 |
| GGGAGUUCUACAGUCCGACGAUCCUCAAGUCCUGUGCUACACAUCGUAUGUACCGAAUCGGGGAGGGGAGGGGAGGGAAAGUAUUAUGUUACGCCGUUCGGAUCUGCACUUCCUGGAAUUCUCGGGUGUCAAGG | -0.11 |
| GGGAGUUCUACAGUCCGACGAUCUCCUCAAGUCCUGUGCUACACAUCGUAUGUACCGAAUCGGUGGGGUGGUGGAAAGUAUUAUGUUACGCCGUUCGGAUCUGCACUUCCAGCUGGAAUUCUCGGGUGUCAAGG | -0.475 |
| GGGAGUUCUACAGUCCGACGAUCUUGCGGCAGCCGCCCCCUUCUGCGCGGUCACGCCGAGCCAGCGCCUGGGCCUGGAACCGGGCCGUAGCCCCCCCAGUUUCGCCCACCACCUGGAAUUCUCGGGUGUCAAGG | 0.617 |
| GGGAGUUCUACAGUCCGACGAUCGCAGGAAGUAAAAACAAAUGGAAAUGCUAAAGAUAGUGGCAGGGGUGGGGGUUGCUAAGGAAAGGGUGGGAUGGGAGUGGGUAAAGAGUUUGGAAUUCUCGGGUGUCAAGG | 1.77 |
| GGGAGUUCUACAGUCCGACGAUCAGUCCUGUGCUACACAUCGUAUGUACCGAAUCGGAAAAGGGGAAAAGGGGAAAAGGGGAAAGUAUUAUGUUACGCCGUUCGGAUCUGCACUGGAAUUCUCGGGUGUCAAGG | 0.244 |
| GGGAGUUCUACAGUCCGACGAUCUCUCCACCUGCUGAGCUCCCCAGUUUGAGGCGGAGCACACGCCAAAAGACCACGGGCUCCUGUGCUAGUACCAGGUAAUUUGUUUUUUUUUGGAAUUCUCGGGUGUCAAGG | 1.04 |
| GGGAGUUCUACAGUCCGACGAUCACCAUGCAGGUGGGCAUCUUUGGGAAGUGGGGCAAGGGGGGGAUAGGGAGGGGGGUAACACUUUGGGAACAGGUGGUCCUAGGUCGUUUCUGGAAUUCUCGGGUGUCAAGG | 1.26 |
| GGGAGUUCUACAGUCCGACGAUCCACAGACAACACGCACCCACACAGACACAGAGGGAAGGGGUUGGGGUGGGGACAGGGUGCACAGCAGGGCGGGGUAGGACCCCAGCCCCUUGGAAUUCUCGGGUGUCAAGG | 1.43 |
| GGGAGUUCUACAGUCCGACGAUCUGCUGUUCAGGUGGUGGAGAAGAAGAUGGAACCCCAGGCUGCCUGGCUACAGAGCCUGGAGGGAUGCAUGUGGACAGCCAAGAAGAAGCUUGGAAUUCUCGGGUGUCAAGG | -2.61 |

Repeated from above (sample 1):
| Oligonucleotide | E-score |
| --- | --- |
| AAATGGTC | 0.121 |
| AGGCCAGC | -0.274 |
| GACCCTAC | -0.192 |
| CTTACAAG | 0.0296 |
| CGCCAGAA | -0.185 |
| ACGAGGAG | -0.0393 |
| TAAGCATA | 0.334 |
